Earlier results, collected from citations in different studies.
Protocols differ between the studies behind these lines. pIC50: −log10 of the molar value.
Chain of UniProt Q92630 (whole entry, looked up): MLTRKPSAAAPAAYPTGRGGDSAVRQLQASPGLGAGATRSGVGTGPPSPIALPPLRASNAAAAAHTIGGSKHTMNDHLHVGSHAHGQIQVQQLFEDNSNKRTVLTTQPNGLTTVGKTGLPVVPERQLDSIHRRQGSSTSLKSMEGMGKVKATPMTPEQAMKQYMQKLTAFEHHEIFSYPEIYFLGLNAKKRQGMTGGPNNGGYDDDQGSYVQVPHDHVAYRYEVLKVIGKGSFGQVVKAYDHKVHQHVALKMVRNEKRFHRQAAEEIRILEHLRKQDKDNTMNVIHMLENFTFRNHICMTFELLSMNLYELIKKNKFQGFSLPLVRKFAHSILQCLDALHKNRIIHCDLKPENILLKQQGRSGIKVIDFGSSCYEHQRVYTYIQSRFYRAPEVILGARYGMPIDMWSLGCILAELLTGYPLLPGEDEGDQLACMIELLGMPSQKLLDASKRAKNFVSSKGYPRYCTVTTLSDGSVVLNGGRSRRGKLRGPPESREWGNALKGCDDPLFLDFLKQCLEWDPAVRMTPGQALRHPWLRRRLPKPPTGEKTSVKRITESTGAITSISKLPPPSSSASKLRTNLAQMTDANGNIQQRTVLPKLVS

Compound | tested on | assay | test system | setting | scale | measurement | value
Cn1ncc(Cl)c1-c1cc(C(=O)N[C@H](CN)Cc2ccc(F)c(F)c2)oc1Cl | A 172 | – | – | – | – | pIC50 | 4.80
Cc1nc2ccc(F)cc2n1-c1nc(N)c(F)c(Nc2ccc(C(F)(F)F)cc2)n1 | – | – | patients with advanced solid tumours | oral capsule, 10.4 mg/kg | – | terminal half-life | 19.9 h
Cc1cc(NC(=O)c2cccc(NC(=O)/C=C/CN(C)C)c2)ccc1Nc1nccc(-c2cccnc2)n1 | Dual specificity tyrosine-phosphorylation-regulated kinase 2 (DYRK2, Homo sapiens, UniProt Q92630) | enzyme activity, inhibitor | – | 1 µM | baseline: vehicle | remaining activity | 20%
CC(=O)Nc1nc(CN2CCC[C@H](Cc3cc(C)nc(C)c3)C2)cs1 | OGA (human) | cellular activity | – | – | – | pIC50 | < 6.00
CC(=O)O[C@H](C)C(=O)CCCCC[C@@H]1NC(=O)[C@H]2CCCN2C(=O)[C@H](Cc2ccccc2)NC(=O)C(C)(C)NC1=O | Jurkat | – | – | – | – | pIC50 | 6.90
C[C@@H](c1ccc2nccn2c1)n1nnc2ncc(-c3cnn(C)c3)nc21 | A 172 | – | – | – | – | pIC50 | 5.16
NC(=O)c1[nH]cnc1N | CYP1A2 | in vitro based | – | – | – | CYP1A2 contribution to metabolism | ~70%
C[C@@H](O)C(=O)CCCCC[C@@H]1NC(=O)[C@H]2CCCN2C(=O)[C@H](Cc2ccccc2)NC(=O)C(C)(C)NC1=O | Jurkat | – | – | – | – | pIC50 | 7.32

A few entries again:
Compound | tested on | assay | test system | setting | scale | measurement | value
Cc1nc2ccc(F)cc2n1-c1nc(N)c(F)c(Nc2ccc(C(F)(F)F)cc2)n1 | – | – | patients with advanced solid tumours | oral capsule, 10.4 mg/kg | – | terminal half-life | 19.9 h
